Measured values collected from several papers.
A part holds a random share of what one study measured. “And” joins repeats or separate records; there may be more than shown.
Chain of UniProt P28223 (whole entry, looked up): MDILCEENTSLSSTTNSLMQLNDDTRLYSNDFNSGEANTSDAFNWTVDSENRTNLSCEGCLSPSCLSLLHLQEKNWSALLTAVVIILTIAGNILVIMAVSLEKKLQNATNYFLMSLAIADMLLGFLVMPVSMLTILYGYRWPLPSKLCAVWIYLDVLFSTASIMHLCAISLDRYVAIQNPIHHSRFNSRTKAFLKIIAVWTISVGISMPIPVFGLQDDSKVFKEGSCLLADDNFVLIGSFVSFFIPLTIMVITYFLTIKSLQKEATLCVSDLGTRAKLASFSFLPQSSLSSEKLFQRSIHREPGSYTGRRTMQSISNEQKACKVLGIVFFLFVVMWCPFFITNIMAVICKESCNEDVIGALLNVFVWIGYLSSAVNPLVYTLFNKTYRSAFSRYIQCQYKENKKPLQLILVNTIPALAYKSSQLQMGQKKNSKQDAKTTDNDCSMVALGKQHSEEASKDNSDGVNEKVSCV

Series 1
Cell line: HH
Concentration: 2 µM
Time: 48 h
Baseline: untreated
Measurement: viability
Cn1cc(/C=C2\C(=O)Nc3cccnc32)c2ccccc21: 116%
O=C1NC(=O)/C(=C/c2ccc(-c3ccc(F)cc3O)o2)S1: 93.9%
CCCCCCCCCCCCCCCc1cccc(O)c1C(=O)O: 104%
CN1CCC(CNc2ccc3ncc(-c4cccc(OC(F)(F)F)c4)n3n2)CC1: 87.5%
O=c1cc(-c2cccc3c2Sc2ccccc2S3)oc(N2CCOCC2)c1: 94.9%
Cn1ncc(Cl)c1-c1cc(C(=O)N[C@H](CN)Cc2ccc(F)c(F)c2)oc1Cl: 52.5%
CC[C@H](Nc1ncnc2[nH]cnc12)c1nc2cccc(F)c2c(=O)n1-c1ccccc1: 86.4%
COc1cc2ncnc(Nc3cccc(Cl)c3)c2cc1OC: 91.3%

Series 2
Cell line: mouse MPNST tumor cells
Technique: high-content immunofluorescence imaging
Measured: nuclear SOX9
Concentration: 10 µM
Time: 12 h
Setting: mean of 2 replicates
Baseline: DMSO control
Reading: higher = more nuclear SOX9
Measurement: nuclear SOX9 intensity
CCOc1ccc(NC(=O)CC(C)O)cc1 (stereo not shown): 91.3 % of DMSO
CCCCC1C(=O)N(c2ccccc2)N(c2ccc(O)cc2)C1=O (stereo not shown): 121 % of DMSO and 158 % of DMSO
N[C@@H](CCNCc1ccc(Cl)cc1)C(=O)N1CCCCC1: 98.6 % of DMSO
COC(=O)C1=C(C#N)NC(C)=C(C(=O)OC(C)C)C1c1cccc([N+](=O)[O-])c1 (stereo not shown): 126 % of DMSO
CCN(CC)CCCCNc1ncc2cc(-c3c(Cl)cccc3Cl)c(NC(=O)NC(C)(C)C)nc2n1: 176 % of DMSO
CCCCC(C)(O)C/C=C/[C@H]1[C@H](O)CC(=O)[C@@H]1CCCCCCC(=O)OC (mixture of isomers): 102 % of DMSO
O=C(Nc1cccc2cccnc12)c1ccc(N2C(=O)[C@@H]3[C@H](C2=O)[C@H]2C=C[C@@H]3C2)cc1: 103 % of DMSO
O=C(Nc1cc(C(F)(F)F)ccc1O)Nc1cc(C(F)(F)F)ccc1O: 103 % of DMSO

Series 3
Target: DNA polymerase theta, helicase domain (POLQ, Homo sapiens, UniProt O75417)
Chain of UniProt O75417 (whole entry, looked up): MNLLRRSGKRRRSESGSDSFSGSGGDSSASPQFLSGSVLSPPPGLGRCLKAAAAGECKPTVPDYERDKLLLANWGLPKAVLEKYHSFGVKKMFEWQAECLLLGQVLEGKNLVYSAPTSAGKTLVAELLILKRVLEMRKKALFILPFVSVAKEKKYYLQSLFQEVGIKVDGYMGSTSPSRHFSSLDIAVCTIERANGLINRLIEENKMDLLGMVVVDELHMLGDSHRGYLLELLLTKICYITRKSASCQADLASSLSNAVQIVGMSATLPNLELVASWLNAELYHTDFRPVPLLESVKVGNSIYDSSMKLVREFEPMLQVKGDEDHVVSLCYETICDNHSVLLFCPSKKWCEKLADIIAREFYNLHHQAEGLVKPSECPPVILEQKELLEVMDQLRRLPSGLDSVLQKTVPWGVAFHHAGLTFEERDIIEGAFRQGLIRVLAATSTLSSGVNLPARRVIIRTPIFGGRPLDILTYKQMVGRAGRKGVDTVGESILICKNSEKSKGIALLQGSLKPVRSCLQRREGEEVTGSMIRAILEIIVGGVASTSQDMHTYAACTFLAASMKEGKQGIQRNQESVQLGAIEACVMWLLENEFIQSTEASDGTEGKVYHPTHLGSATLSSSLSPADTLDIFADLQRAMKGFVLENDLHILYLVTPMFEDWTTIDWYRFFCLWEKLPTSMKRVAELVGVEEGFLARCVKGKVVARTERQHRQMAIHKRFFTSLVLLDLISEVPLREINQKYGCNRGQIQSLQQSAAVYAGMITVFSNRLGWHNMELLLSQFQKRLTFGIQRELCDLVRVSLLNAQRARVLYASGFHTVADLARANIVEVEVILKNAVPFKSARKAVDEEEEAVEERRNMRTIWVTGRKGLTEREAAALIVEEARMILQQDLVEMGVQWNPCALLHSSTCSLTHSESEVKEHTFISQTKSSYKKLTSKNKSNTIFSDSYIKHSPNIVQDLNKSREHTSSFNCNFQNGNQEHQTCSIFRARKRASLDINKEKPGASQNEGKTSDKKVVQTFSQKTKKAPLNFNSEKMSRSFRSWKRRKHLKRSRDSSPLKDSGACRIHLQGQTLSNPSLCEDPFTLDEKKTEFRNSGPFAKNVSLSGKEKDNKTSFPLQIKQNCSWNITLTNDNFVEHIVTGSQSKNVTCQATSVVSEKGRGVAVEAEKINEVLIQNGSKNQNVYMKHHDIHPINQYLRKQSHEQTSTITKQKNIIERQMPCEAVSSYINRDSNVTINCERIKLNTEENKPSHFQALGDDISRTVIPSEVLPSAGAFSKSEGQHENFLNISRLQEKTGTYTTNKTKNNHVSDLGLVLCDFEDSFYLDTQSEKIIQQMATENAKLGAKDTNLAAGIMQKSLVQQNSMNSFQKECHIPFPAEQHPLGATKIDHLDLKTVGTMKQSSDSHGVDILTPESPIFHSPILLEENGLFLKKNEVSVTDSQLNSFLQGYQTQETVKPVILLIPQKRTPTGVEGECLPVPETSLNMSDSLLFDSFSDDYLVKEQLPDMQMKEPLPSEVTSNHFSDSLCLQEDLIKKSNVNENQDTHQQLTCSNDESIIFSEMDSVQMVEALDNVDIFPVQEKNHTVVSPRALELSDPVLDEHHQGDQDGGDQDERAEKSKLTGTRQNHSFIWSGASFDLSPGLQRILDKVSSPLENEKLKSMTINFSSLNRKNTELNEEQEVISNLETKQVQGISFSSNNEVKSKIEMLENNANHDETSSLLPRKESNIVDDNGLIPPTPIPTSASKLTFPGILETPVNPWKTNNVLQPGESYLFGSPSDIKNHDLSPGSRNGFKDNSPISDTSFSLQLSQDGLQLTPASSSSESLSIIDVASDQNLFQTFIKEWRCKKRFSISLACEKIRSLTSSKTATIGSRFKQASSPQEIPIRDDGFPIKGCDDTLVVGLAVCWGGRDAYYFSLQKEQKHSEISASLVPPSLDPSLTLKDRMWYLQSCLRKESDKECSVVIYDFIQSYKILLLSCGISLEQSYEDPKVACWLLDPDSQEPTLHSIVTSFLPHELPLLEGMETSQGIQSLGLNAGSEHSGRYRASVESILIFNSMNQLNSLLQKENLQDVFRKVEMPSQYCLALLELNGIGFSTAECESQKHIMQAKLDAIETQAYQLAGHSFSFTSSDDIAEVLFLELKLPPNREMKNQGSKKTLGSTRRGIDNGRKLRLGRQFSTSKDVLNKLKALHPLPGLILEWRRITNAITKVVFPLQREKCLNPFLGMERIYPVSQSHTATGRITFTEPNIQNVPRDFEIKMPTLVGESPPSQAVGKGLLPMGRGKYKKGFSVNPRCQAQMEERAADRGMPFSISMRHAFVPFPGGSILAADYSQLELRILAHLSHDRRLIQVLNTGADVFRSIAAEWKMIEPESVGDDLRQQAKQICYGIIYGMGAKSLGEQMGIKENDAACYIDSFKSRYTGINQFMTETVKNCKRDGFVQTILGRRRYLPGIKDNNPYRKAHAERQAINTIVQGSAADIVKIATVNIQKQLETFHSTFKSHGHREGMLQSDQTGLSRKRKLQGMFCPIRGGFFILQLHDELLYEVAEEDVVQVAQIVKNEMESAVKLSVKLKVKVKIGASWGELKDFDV
Mode: inhibitor
Concentration: concentration not given
Together with: with ssDNA
Measurement: remaining activity
Cc1nc(N=Nc2cc(S(=O)(=O)O)c3cc([N+](=O)[O-])cc(S(=O)(=O)O)c3c2)c(COP(=O)(O)O)c(C=O)c1O: 45.9% and 47.3%
N#Cc1c(O)c2c(-c3ccc(-c4ccccc4O)cc3)csc2[nH]c1=O: 51% and 50.5%
COc1ccc(S(=O)(=O)c2cnc(SCC(=O)Nc3cc(F)ccc3C)[nH]c2=O)cc1Cl: 55.8% and 60%
CCc1ccc(/C=C2/SC(=S)NC2=O)cc1: 44.9% and 48.3%
O=C(Nc1noc2ccccc12)c1ccc(F)cc1: 50.3% and 46.9%
Cc1ccc(C2C=C(c3ccccc3)N=C3N=C(NS(C)(=O)=O)NN32)cc1 (stereo not shown): 89.7% and 90.7%
CSc1ccc(/C=C/c2nc3ccccc3n2S(=O)(=O)c2cccc(Cl)c2)cc1: 48.6% and 47.3%
O=C(Nc1cc(-c2ccccc2)sc1C(=O)O)c1cccc(F)c1: 59.7% and 61.6%

Other studies, line by line
CC(=O)Nc1nc(CN2CCC[C@H](Cc3cc(C)nc(C)c3)C2)cs1
inhibition (5-hydroxytryptamine receptor 2A (HTR2A, Homo sapiens, UniProt P28223); ligand displacement; 10 µM): 6.45%
